Measured values from different studies.
Values joined by “and” are separate records of one study, mostly repeats; a detail may differ. ± gives the spread as reported.

SMILES = O=C1NC2(CC2)COc2ncc(F)cc2[C@H]2COCCN2c2ccn3ncc1c3n2; test system = Sprague-Dawley rat, male, spleen; conditions = oral, 2.5 mg/kg/day, 4 weeks dosing, end of recovery; measurement = organ-to-body weight ratio; result = 0.206 ± 0.028%
SMILES = CCN1CC2(COC)C(O)CC(OC)C34C5CC6(O)C(OC)C(O)C(O)(C5C6OC(=O)c5ccccc5)C(C(OC)C23)C14 (stereo not shown); test system = Sprague-Dawley rat, plasma; conditions = oral, dose not given, with NADES in PCW extract; measurement = Cmax; result = 94.3 ± 14.5 ng/mL
SMILES = O=C(Nc1cccs1)c1cccnc1; test system = mouse, brain; conditions = intravenous, 5 mg/kg, brain density 1 g/mL; measurement = Cmax; result = 10.3 µM
SMILES = Cc1ccc(OCCN(C)C)cc1C(=O)N[C@H](C)c1cc(-c2cnn(C3CNC3)c2)nc2ccccc12; tested on = Vero E6; conditions = 125 µM; measurement = viability; result = 99.6% and 101%
SMILES = COc1cccc2c1C(=O)c1c(O)c3c(c(O)c1C2=O)CC(O)(C(=O)CO)CC3OC1CC(NC(=O)OC2C=CCCC(C)(C(=O)NCC(=O)O)CC2)C(O)C(C)O1 (stereo not shown); test system = male Sprague Dawley rat, plasma; conditions = intravenous, 21.5 mg/kg/day doxorubicin equivalents, average over days; measurement = Cmax; result = 2140 ng/mL
SMILES = CCn1ccc(-c2cc(-c3cnn(C)c3)cc([C@@H](C)NC(=O)c3cc(OCCN(C)C)ccc3C)c2)n1; tested on = African green monkey cells; conditions = 15.62 µM; measurement = viability; result = 98.9%
SMILES = O=C(CN1C(=O)C2(CCN(C(=O)c3ccc4[nH]ncc4n3)CC2)c2c(Br)cccc21)NCC(F)(F)F; test system = C57BL/6 mouse, male, plasma; conditions = intraperitoneal, 10 mg/kg; measurement = Cmax; result = 309 ng/mL
SMILES = CN[C@H](CC(C)C)C(=O)N[C@H]1C(=O)N[C@@H](CC(N)=O)C(=O)N[C@H]2C(=N)N[C@H]3C(=O)N[C@H](C(=O)N[C@H](C(=O)NCCCNC(=N)N)c4cc(O)cc(O)c4-c4cc3ccc4O)[C@H](O)c3ccc(c(Cl)c3)Oc3cc2cc(c3O[C@@H]2O[C@H](CO)[C@@H](O)[C@H](O)[C@H]2O[C@H]2C[C@](C)(NCc3ccc(-c4ccc(Cl)cc4)cc3)[C@H](O)[C@H](C)O2)Oc2ccc(cc2Cl)[C@H]1O; test system = mouse; conditions = intravenous, 10 mg/kg; measurement = Cmax; result = 44000 ng/mL
SMILES = CCOc1ccccc1-n1c(CN2CCNCC2)nc2ccccc2c1=O; test system = C57BL/6 mouse, male, plasma; conditions = intraperitoneal, 3 mg/kg; measurement = Cmax; result = 1.05 µM
SMILES = O=C(c1cc(Cc2n[nH]c(=O)c3ccccc23)ccc1F)N1CC(CNC2CC2)C1; test system = male Wistar Han rat; conditions = oral, 15 mg/kg, day 1; measurement = Cmax; result = 602 ng/mL
SMILES = C/C(=N\OCCCN1CCCCC1)c1ccc(C(F)(F)F)cc1; test system = mouse, plasma; conditions = oral, 50 mg/kg once daily, day 7; measurement = Cmax; result = 800 ± 107 ng/mL
SMILES = Cc1cc(Nc2nc(C[C@@]3(C(=O)O)CCN(Cc4cccc(Cl)c4F)[C@H](C)C3)cc(C)c2F)n[nH]1; test system = mouse, IMR-32 xenograft, plasma; conditions = oral, 5 mg/kg once daily; measurement = Cmax; result = 7560 ng/mL
SMILES = CC[C@H](C)[C@H](NC(=O)[C@H](Cc1ccc(O)cc1)NC(=O)[C@@H](NC(=O)[C@H](CCCNC(=N)N)NC(=O)[C@@H](N)CC(=O)O)C(C)C)C(=O)N[C@@H](Cc1c[nH]cn1)C(=O)N1CCC[C@H]1C(=O)O; test system = Beagle dog both sexes, plasma; conditions = subcutaneous, 10 mg/kg/day, day 27, median; measurement = Cmax; result = 841 ng/mL
